Published values of several laboratories.
Compare with care: the assays were run in different laboratories. ± gives the spread as reported.
TDP1: Tyrosyl-DNA phosphodiesterase 1 (TDP1, Homo sapiens, UniProt Q9NUW8)
Sequence of UniProt Q9NUW8 (whole entry, looked up): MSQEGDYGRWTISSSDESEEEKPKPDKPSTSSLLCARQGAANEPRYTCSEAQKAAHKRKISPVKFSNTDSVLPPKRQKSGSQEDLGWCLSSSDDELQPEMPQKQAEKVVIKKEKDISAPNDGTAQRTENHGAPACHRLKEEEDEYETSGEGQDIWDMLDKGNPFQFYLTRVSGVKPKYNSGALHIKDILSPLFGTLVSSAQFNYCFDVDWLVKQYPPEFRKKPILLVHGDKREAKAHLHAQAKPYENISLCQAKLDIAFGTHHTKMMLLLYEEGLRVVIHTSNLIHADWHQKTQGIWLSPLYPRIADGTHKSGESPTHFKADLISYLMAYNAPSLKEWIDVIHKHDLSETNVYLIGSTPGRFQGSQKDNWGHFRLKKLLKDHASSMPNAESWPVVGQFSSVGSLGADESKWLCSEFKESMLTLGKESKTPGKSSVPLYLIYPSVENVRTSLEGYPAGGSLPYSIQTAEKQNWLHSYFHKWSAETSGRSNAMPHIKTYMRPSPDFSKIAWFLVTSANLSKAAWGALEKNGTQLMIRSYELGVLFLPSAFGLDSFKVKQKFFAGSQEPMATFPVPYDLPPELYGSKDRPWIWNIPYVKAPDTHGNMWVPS
MAPK14: Mitogen-activated protein kinase 14 (MAPK14, Homo sapiens, UniProt Q16539)
Sequence of UniProt Q16539 (whole entry, looked up): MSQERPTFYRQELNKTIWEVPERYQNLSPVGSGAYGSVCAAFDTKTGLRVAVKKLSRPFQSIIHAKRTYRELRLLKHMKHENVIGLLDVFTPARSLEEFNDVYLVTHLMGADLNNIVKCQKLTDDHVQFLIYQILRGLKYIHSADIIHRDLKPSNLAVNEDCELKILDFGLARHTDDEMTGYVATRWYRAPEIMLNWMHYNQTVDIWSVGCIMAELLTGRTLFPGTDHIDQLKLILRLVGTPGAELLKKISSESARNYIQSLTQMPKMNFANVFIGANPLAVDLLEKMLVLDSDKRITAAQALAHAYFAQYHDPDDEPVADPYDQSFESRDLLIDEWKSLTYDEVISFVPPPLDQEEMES
Seed linoleate 13S-lipoxygenase-1: Seed linoleate 13S-lipoxygenase-1 (Glycine max, UniProt P08170)
Sequence of UniProt P08170 (whole entry, looked up): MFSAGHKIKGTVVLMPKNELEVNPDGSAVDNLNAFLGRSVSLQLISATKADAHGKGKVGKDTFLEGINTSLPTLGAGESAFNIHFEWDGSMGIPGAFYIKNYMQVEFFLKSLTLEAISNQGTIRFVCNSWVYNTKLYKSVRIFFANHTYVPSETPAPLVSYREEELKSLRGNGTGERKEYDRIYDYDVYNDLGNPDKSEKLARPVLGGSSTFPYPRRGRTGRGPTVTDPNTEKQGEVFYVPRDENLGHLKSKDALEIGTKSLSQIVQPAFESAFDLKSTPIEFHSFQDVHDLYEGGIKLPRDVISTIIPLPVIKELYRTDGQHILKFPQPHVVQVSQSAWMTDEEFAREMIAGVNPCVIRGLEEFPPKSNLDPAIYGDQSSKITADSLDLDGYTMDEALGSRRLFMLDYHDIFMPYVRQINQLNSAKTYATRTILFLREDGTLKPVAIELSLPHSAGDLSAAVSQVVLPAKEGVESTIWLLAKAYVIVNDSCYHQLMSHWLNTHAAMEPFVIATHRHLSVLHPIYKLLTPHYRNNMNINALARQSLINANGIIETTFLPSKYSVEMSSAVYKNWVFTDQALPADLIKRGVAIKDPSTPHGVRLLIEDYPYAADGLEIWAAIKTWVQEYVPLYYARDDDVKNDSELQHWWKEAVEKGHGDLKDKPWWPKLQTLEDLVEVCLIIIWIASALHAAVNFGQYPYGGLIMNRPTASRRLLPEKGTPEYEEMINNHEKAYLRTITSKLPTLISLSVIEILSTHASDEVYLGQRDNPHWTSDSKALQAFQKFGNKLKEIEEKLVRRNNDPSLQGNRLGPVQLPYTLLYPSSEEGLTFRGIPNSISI
ABCC1: Multidrug resistance-associated protein 1 (ABCC1, Homo sapiens, UniProt P33527)
Sequence of UniProt P33527 (whole entry, looked up): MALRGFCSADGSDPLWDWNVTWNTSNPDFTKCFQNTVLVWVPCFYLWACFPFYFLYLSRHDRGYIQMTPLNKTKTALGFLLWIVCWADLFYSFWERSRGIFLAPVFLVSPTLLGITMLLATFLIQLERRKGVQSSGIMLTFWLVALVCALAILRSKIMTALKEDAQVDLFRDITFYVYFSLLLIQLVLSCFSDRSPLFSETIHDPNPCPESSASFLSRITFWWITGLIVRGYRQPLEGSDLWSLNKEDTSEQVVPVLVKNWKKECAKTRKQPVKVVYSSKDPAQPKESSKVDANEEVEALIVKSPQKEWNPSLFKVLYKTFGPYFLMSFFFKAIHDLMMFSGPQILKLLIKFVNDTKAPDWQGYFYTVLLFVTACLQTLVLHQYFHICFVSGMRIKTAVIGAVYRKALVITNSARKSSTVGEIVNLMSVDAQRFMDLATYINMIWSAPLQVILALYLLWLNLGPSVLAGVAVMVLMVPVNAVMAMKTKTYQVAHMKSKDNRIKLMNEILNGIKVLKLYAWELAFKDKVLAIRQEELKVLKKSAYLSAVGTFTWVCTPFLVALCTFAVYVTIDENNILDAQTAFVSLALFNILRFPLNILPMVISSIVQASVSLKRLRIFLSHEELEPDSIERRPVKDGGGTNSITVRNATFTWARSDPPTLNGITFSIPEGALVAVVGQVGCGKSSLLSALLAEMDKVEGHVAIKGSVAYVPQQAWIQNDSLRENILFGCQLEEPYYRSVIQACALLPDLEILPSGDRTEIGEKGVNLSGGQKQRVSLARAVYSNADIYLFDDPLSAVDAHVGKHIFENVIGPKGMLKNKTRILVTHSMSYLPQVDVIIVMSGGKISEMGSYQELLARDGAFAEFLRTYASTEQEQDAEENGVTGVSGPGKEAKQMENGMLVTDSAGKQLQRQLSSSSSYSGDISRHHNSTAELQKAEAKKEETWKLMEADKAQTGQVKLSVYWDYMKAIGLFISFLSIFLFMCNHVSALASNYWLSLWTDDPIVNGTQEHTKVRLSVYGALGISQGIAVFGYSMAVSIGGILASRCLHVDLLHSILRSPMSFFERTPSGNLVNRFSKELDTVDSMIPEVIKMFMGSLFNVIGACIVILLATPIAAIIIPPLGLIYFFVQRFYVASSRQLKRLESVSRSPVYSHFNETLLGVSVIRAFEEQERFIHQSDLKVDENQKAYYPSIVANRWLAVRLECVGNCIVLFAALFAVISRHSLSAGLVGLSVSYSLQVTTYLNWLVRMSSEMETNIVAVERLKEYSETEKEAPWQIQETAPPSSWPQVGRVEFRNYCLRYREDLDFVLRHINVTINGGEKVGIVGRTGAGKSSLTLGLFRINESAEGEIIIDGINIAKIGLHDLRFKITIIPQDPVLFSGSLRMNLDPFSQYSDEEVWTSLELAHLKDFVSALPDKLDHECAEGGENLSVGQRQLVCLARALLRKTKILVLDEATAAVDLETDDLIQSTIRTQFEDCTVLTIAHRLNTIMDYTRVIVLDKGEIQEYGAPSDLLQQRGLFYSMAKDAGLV
Sequence of UniProt O89049 (whole entry, looked up): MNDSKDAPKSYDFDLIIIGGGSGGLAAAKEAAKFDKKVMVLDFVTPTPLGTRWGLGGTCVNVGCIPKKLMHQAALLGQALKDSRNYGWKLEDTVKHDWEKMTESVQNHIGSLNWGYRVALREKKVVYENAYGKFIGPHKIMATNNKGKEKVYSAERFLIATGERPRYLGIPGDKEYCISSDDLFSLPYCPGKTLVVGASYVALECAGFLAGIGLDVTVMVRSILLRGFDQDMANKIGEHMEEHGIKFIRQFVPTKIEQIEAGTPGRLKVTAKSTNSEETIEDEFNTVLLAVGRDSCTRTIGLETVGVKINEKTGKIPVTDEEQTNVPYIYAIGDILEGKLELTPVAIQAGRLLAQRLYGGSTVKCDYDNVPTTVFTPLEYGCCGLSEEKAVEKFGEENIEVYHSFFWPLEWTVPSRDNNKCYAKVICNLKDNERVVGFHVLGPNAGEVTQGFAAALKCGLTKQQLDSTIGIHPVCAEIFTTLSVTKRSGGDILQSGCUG
Sequence of UniProt Q15849 (whole entry, looked up): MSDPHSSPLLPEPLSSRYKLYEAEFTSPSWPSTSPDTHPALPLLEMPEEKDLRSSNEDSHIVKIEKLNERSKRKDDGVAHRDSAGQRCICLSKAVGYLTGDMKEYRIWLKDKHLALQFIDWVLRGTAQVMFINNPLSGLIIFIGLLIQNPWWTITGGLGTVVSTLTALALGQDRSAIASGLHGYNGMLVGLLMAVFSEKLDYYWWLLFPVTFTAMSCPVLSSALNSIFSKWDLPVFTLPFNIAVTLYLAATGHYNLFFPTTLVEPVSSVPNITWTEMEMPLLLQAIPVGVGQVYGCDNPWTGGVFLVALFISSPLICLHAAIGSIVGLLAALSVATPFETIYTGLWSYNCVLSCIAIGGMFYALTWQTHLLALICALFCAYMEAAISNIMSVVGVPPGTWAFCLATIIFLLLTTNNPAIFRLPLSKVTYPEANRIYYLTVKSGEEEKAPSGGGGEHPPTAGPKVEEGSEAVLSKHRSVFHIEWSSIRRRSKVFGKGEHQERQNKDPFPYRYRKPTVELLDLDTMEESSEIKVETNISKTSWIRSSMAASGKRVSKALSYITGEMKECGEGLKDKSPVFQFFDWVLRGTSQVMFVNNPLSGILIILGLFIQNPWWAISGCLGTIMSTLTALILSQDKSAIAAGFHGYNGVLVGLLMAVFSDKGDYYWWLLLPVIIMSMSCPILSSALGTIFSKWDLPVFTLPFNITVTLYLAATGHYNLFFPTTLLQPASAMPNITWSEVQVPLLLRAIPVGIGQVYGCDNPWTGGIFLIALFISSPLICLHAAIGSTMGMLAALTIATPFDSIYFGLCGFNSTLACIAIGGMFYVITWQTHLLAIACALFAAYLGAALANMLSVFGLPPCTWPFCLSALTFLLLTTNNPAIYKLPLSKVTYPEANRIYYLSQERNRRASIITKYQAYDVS
Sequence of UniProt Q9NRN9 (whole entry, looked up): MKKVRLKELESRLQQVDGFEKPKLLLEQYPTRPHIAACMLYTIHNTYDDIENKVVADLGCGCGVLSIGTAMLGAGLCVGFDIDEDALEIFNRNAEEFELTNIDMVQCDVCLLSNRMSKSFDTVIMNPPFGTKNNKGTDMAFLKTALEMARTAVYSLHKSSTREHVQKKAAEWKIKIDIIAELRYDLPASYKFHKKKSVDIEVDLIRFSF

Compound | target | assay | system | setting | how to read | inhibition
O=C(O)c1ccc(Nc2c(-c3ccc(CON=Cc4ccc(-c5ccccc5)cc4)cc3)nc3cc(-c4ccccc4)ccn23)cc1 | TDP1 | enzyme activity, inhibitor |  | 100 µM |  | 36%
O=C1c2ccccc2C(=O)c2c1ccc1c2C(C(=O)NCc2ccccc2)C(=O)C1c1ccccc1 (stereo not shown) | mushroom tyrosinase | enzyme activity, inhibitor, spectrophotometry |  | 100 µg/mL, added: L-DOPA substrate |  | 50.6 ± 1.08%
O=[N+]([O-])c1ccc(Cn2cc(Cn3cc(CO)nn3)nn2)cc1 | Cytohesin-3, PH domain (Cyth3, Mus musculus, UniProt O08967) | PI(3,4,5)P3 binding, competitive SPR |  | 5 µM, PH domain 500 nM |  | 52 ± 4%
COc1cc(C(=O)NC2CCC(N3CCN(CC4CCC5(CCCC5)C4)CC3)CC2)c(F)cc1Nc1ncc2c(n1)N(C1CCCC1(F)F)CC(F)(F)C(=O)N2C (stereo not shown) | FGFR2 (Homo sapiens, UniProt P21802) | cell-free assay, TR-FRET |  | 10 µM |  | 0.75%
CNc1cncc(-c2ccc(OC)c(OC)c2)n1 | MAPK14 | primary fragment screen |  | 1 mM, added: ATP 10 µM |  | 62.3%
COc1cc(OC)c2c(c1)C(=O)c1cc3oc(=O)cc(-c4ccc(Cl)cc4)c3c(O)c1C2=O | mushroom tyrosinase | enzyme activity |  | 25 µg/mL, added: L-DOPA |  | 27.71 ± 0.23%
O=C1c2ccccc2C(=O)c2c1ccc1c2C(C(=O)Nc2ccc(Cl)cc2)C(=O)C1c1ccccc1 (stereo not shown) | mushroom tyrosinase | enzyme activity, inhibitor, spectrophotometry |  | 50 µg/mL, added: L-DOPA substrate |  | 28.1 ± 0.8%
CCn1c(SC(C)C(=O)NCc2ccccc2)nnc1C1CCN(C(=O)Nc2ccccc2)CC1 (stereo not shown) | Seed linoleate 13S-lipoxygenase-1 | enzyme activity, inhibitor |  | 250 µM |  | 88.5%
O=C1c2ccccc2C(=O)c2c1ccc1c2C(C(=O)Nc2ccccc2Cl)C(=O)C1c1ccccc1 (stereo not shown) | mushroom tyrosinase | enzyme activity, inhibitor, spectrophotometry |  | 100 µg/mL, added: L-DOPA substrate |  | 64.3 ± 1.52%
COc1cc(OC)c2c(c1)C(=O)c1cc3oc(=O)cc(-c4ccccc4)c3c(O)c1C2=O | mushroom tyrosinase | enzyme activity |  | 25 µg/mL, added: L-DOPA |  | 22.89 ± 0.21%
COc1cc(/C=C/C(=O)c2ccc(Br)cc2)ccc1OCc1ccccc1 | ABCC1 | calcein efflux, flow cytometry |  | 10 µM |  | no inhibition
COc1cccc(OC)c1C(=O)N1CCN(Cc2ccccn2)CC1 | MAPK14 | primary fragment screen |  | 1 mM, added: ATP 10 µM |  | 89.1%
Nc1nc2cc(CC[C@H]3C[C@@H](n4ccc5c(N)ncnc54)[C@H](O)[C@@H]3O)ccc2cc1Br | lysine methyltransferases, human | enzyme activity, inhibitor |  | 10 µM |  | ≤ 15%
COc1ccc(CN2C[C@H](O)[C@H](O)[C@@H]2CO)cc1 | Alpha-mannosidase (Canavalia ensiformis, UniProt C0HJB3) | enzyme activity, inhibitor, absorbance |  | 2 mM |  | 4%
COc1ccc(NC(=O)C2C(=O)C(c3ccccc3)c3ccc4c(c32)C(=O)c2ccccc2C4=O)cc1 (stereo not shown) | mushroom tyrosinase | enzyme activity, inhibitor, spectrophotometry |  | 50 µg/mL, added: L-DOPA substrate |  | 28.11 ± 0.23%
COc1cccc(CCn2c3c(c4c2-c2ccccc2C4=O)C(=O)CCC3)c1 | ABCC1 | calcein efflux | HEK293 expressing MRP1 | 2 µM | baseline: verapamil 35 µM as 100% | inhibited
CC(C)C[C@H](NC(=O)[C@@H](CCCCNC(=O)CCCCCNC(=O)CN1CCN(CC(=O)O)CCN(CC(=O)O)CCN(CC(=O)O)CC1)NC(=O)[C@H](Cc1ccc(O)cc1)NC(=O)[C@H](CO)NC(=O)[C@H](Cc1c[nH]c2ccccc12)NC(=O)[C@H](Cc1c[nH]cn1)NC(=O)[C@@H]1CCC(=O)N1)C(=O)N[C@@H](CCCNC(=N)N)C(=O)N1CCC[C@H]1C(=O)NCC(N)=O [indium-111 labelled] | GNRHR (Homo sapiens, UniProt P30968) | radioligand binding |  | concentration not given, 3 h, 25 °C, added: DOTA-Ahx-D-Lys6-GnRH1 1 µM |  | 86%
Cc1ccc2c(c1C)NC(=O)C2(O)CC(=O)c1ccc2c(c1)OCO2 (stereo not shown) | Uncharacterized protein (Trypanosoma brucei brucei, UniProt Q386Q8) | enzyme activity, inhibitor, coupled colorimetric | Trypanosoma brucei | 100 µM |  | 28%
O=C1c2ccccc2C(=O)c2c1ccc1c2C(C(=O)Nc2ccc(Br)cc2)C(=O)C1c1ccccc1 (stereo not shown) | mushroom tyrosinase | enzyme activity, inhibitor, spectrophotometry |  | 50 µg/mL, added: L-DOPA substrate |  | 61.9 ± 1.32%
NCCCC[C@H](NC(=O)[C@H](CCCCN)NC(=O)[C@@H]1CCCN1C(=O)CNCCCN(CC[C@H](N)C(=O)O)C[C@H]1O[C@@H](n2cnc3c(N)ncnc32)[C@H](O)[C@@H]1O)C(N)=O | METTL5, with Trm112 (Homo sapiens, UniProt Q9NRN9) | methyltransferase activity |  | 1 µM |  | no inhibition
COc1c2c(cc3oc(=O)cc(C)c13)C(=O)c1cc(C)cc(O)c1C2=O | mushroom tyrosinase | enzyme activity |  | 50 µg/mL, added: L-DOPA |  | 31.33 ± 0.17%
CCCCCC[N+](CCCCCC)(CCCCCC)CCCCCC | Kcnk2 (Rattus norvegicus, UniProt Q920B6) | pressure-evoked current, blocker, inside-out patch clamp | Xenopus oocytes | 1 µM, added: pressure 0 to -15 mmHg |  | 67 ± 4.6%
COc1cc(/C=C/C(=O)CC(C)=O)ccc1O | Txnrd1 (Rattus norvegicus, UniProt O89049) | enzyme activity, inhibitor, absorbance |  | 100 µM, 30 min, pH 7.4 |  | 85 to 95%

Compound | target | assay | system | setting | how to read | inhibition
Nc1nc(Nc2ccccc2)nc2ccccc12 | MAPK14 | primary fragment screen |  | 1 mM, added: ATP 10 µM |  | 90%
CC[C@H](C)[C@H](NC(=O)[C@@H]1CSSC[C@H](NC(=O)[C@H](Cc2ccc(O)cc2)NC(=O)CN)C(=O)N[C@@H](CO)C(=O)N[C@@H](CCCNC(=N)N)C(=O)N[C@@H](CO)C(=O)N[C@@H](Cc2ccc(O)cc2)C(=O)N2CCC[C@H]2C(=O)N2CCC[C@H]2C(=O)N[C@@H](C(C)C)C(=O)N1)C(=O)N1CCC[C@H]1C(=O)N[C@@H](CC(=O)O)C(N)=O | Mannan-binding lectin serine protease 1 (Homo sapiens, UniProt P48740) | enzyme activity, inhibitor |  | 15 µM, added: 10 nM MASP-1 |  | 27%
Cc1ccccc1CN1CCN(C(=O)c2cccnc2)CC1 | MAPK14 | primary fragment screen |  | 0.25 mM, added: ATP 10 µM |  | 40.5%
Cc1cc(O)cc2c1C(=O)c1c(cc3oc(=O)cc(-c4ccc(O)cc4)c3c1O)C2=O | mushroom tyrosinase | enzyme activity |  | 100 µg/mL, added: L-DOPA |  | 45.8 ± 0.52%
N#Cc1ccc(-c2ccc(C=NOCc3ccc(-c4nc5cc(-c6ccccc6)ccn5c4Nc4ccc(C(=O)O)cc4)cc3)cc2)nc1 | TDP1 | enzyme activity, inhibitor |  | 100 µM |  | 99%
COc1cc(Oc2c(O)cc(C)cc2OC)c(C(=O)O)c(C)c1O | Gag-Pol polyprotein, reverse transcriptase (gag-pol, Human immunodeficiency virus 1, UniProt P03366) | enzyme activity, inhibitor, PicoGreen fluorescence |  | 10 µM |  | 24.3%
Cc1cc(O)c2c(c1)C(=O)c1cc3oc(=O)cc(C)c3c(O)c1C2=O | mushroom tyrosinase | enzyme activity |  | 100 µg/mL, added: L-DOPA |  | 38.55 ± 0.17%
O=C1C[C@@H](c2ccc(O)c(O)c2)c2c(cc(O)c3c2O[C@H](c2ccc(O)c(O)c2)[C@H](O)C3)O1 | DPP4 (Sus scrofa, UniProt P22411) | enzyme activity, inhibitor, absorbance |  | 50 µg/mL |  | 37.8%
Cc1c2c(cc3oc(=O)cc(-c4ccc(O)cc4)c13)C(=O)c1cccc(O)c1C2=O | mushroom tyrosinase | enzyme activity |  | 100 µg/mL, added: L-DOPA |  | 44.6 ± 0.63%
CC(=O)c1cnc(N)nc1N1CC[C@H]1c1nn2ccc(Cl)c2c(=O)n1-c1ccccc1 | KCNJ2 (Homo sapiens, UniProt P63252) | ion current, inhibitor |  | 3 µM |  | < 10%
Cc1cc(O)cc2c1C(=O)c1c(cc3oc(=O)cc(C)c3c1O)C2=O | mushroom tyrosinase | enzyme activity |  | 25 µg/mL, added: L-DOPA |  | 32.53 ± 0.01%
Oc1ccc(CCC(O)CC(O)CCc2ccc(O)cc2)cc1 (stereo not shown) | Dopamine beta-hydroxylase (Bos taurus, UniProt P15101) | enzyme activity, inhibitor |  | 50 µg/mL |  | 19.4%
CCc1noc(CN(CCN(Cc2nc(CC)no2)c2ccccc2)c2ccccc2)n1 | CXCR4 (Homo sapiens, UniProt P61073) | β-arrestin recruitment |  | 10 µM |  | > 50%
CCn1c(SC(C)C(=O)Nc2cccc(C)c2)nnc1C1CCN(C(=O)Nc2ccccc2)CC1 (stereo not shown) | Seed linoleate 13S-lipoxygenase-1 | enzyme activity, inhibitor |  | 250 µM |  | 89.6%
O=C(O)c1ccc(Nc2c(-c3ccc(CON=Cc4ccc(N5CCCC5=O)cc4)cc3)nc3cc(-c4ccccc4)ccn23)cc1 | TDP1 | enzyme activity, inhibitor |  | 100 µM |  | 91%
Nc1nc(Nc2ccccc2)sc1C(=O)c1ccccc1 | HIPK2 (Homo sapiens, UniProt Q9H2X6) | enzyme activity, inhibitor |  | 10 µM |  | > 90%
COc1ccc2[nH]cc(C[C@H](NC(=O)CCN)C(=O)N[C@@H](Cc3ccc(Cl)cc3)C(=O)N[C@@H](Cc3ccncc3)C(N)=O)c2c1 | EphA3 receptor | ephrin-A5 binding, ELISA |  | 500 µM |  | 25%
Oc1cc(-c2ccccc2Cl)[nH]n1 | MAPK14 | primary fragment screen |  | 0.25 mM, added: ATP 10 µM |  | 10.9%
Cc1cc(O)cc2c1C(=O)c1c(cc3oc(=O)cc(-c4ccc(Cl)cc4)c3c1O)C2=O | mushroom tyrosinase | enzyme activity |  | 100 µg/mL, added: L-DOPA |  | 59.7 ± 0.11%
O=C(Nc1cccc(Cl)c1)c1c[nH]cn1 | MAPK14 | primary fragment screen |  | 0.25 mM, added: ATP 10 µM |  | 33.4%
CCOC(=O)c1cc2c(N)c(C(=O)OC)sc2nc1C | Urea transporter 2 (SLC14A2, Homo sapiens, UniProt Q15849) | urea transport, inhibitor | MDCK expressing SLC14A2 | concentration not given, added: 10 µM forskolin |  | 35.4%
CC(C)c1csc2nc[nH]c(=O)c12 | MAPK14 | primary fragment screen |  | 0.25 mM, added: ATP 10 µM |  | 36%
CCn1c(SC(C)C(=O)NC2CCCCC2)nnc1C1CCN(C(=O)Nc2ccccc2)CC1 (stereo not shown) | Seed linoleate 13S-lipoxygenase-1 | enzyme activity, inhibitor |  | 250 µM |  | 87.6%

Repeated from above:
Compound | target | assay | system | setting | how to read | inhibition
CC[C@H](C)[C@H](NC(=O)[C@@H]1CSSC[C@H](NC(=O)[C@H](Cc2ccc(O)cc2)NC(=O)CN)C(=O)N[C@@H](CO)C(=O)N[C@@H](CCCNC(=N)N)C(=O)N[C@@H](CO)C(=O)N[C@@H](Cc2ccc(O)cc2)C(=O)N2CCC[C@H]2C(=O)N2CCC[C@H]2C(=O)N[C@@H](C(C)C)C(=O)N1)C(=O)N1CCC[C@H]1C(=O)N[C@@H](CC(=O)O)C(N)=O | Mannan-binding lectin serine protease 1 (Homo sapiens, UniProt P48740) | enzyme activity, inhibitor |  | 15 µM, added: 10 nM MASP-1 |  | 27%
Cc1ccccc1CN1CCN(C(=O)c2cccnc2)CC1 | MAPK14 | primary fragment screen |  | 0.25 mM, added: ATP 10 µM |  | 40.5%
Cc1cc(O)cc2c1C(=O)c1c(cc3oc(=O)cc(-c4ccc(O)cc4)c3c1O)C2=O | mushroom tyrosinase | enzyme activity |  | 100 µg/mL, added: L-DOPA |  | 45.8 ± 0.52%
N#Cc1ccc(-c2ccc(C=NOCc3ccc(-c4nc5cc(-c6ccccc6)ccn5c4Nc4ccc(C(=O)O)cc4)cc3)cc2)nc1 | TDP1 | enzyme activity, inhibitor |  | 100 µM |  | 99%
COc1cc(Oc2c(O)cc(C)cc2OC)c(C(=O)O)c(C)c1O | Gag-Pol polyprotein, reverse transcriptase (gag-pol, Human immunodeficiency virus 1, UniProt P03366) | enzyme activity, inhibitor, PicoGreen fluorescence |  | 10 µM |  | 24.3%
Cc1cc(O)c2c(c1)C(=O)c1cc3oc(=O)cc(C)c3c(O)c1C2=O | mushroom tyrosinase | enzyme activity |  | 100 µg/mL, added: L-DOPA |  | 38.55 ± 0.17%
